Measurements of several laboratories.
Parts stem from different laboratories: compare values within a part only. Positions count from the first letter of the parent shown.

Sample 1
Target: NFE2, bZIP domain (human)
Technique: DHFR protein complementation
Sample: yeast
Notes: single substitutions, most at no-binding floor
Baseline: wild-type JUN-FOS pair
Direction: higher = stronger binding
Parent: JUN, bZIP domain (human); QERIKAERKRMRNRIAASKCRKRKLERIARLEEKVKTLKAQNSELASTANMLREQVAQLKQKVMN; partner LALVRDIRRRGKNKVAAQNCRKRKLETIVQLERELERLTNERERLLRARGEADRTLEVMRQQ
| Variant | binding fitness [natural log] |
| --- | --- |
| E54S | -1.26 |
| Q41R | -1.45 |
| R53F | -1.45 |
| S47V | -1.39 |
| A29P | -1.5 |
| V35K | -1.52 |
| A46F | -1.53 |
| R53L | -1.36 |
| E32H | -1.48 |
| V56P | -1.52 |
| S47K | -1.49 |
| I28A | -1.54 |
| E44G | -1.34 |
| L31T | -1.58 |
| T37L | -1.22 |
| S47G | -1.37 |
| T48Q | -1.45 |
| N42G | -1.5 |
| E32I | -1.41 |
| A49G | -1.45 |
| K34Y | -1.48 |
| E33C | -1.5 |
| R53N | -1.48 |
| L38C | -1.41 |
| T37K | -1.39 |

Sample 2
Target: CCND2, cyclin fold, Cln2 fusion (human)
Technique: yeast growth competition, sequencing
Sample: yeast
Notes: weak parent motif
Baseline: not given
Direction: higher = stronger binding
Parent: FZR1 docking peptide (human); QDYERRLLRQIVI; partner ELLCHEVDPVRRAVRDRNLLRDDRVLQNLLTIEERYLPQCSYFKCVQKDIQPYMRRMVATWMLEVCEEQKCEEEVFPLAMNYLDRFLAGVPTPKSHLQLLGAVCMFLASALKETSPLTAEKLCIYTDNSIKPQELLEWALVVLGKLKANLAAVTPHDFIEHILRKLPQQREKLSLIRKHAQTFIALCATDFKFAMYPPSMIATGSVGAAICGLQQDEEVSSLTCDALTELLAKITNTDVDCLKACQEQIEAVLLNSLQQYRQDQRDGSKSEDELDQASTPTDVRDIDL
| Variant | normalised enrichment score |
| --- | --- |
| QDYEKRLLRQIVI [R5K] | -0.0246 |
| QDYERRLLRQIAI [V12A] | 0.147 |
| QDYERRLLRAIVI [Q10A] | -0.00228 |
| QDYERRLFRQIVI [L8F] | -0.134 |
| QDYERRALRQIVI [L7A] | 0.425 |
| QDYERALLRQIVI [R6A] | 0.227 |
| QDYERRLLRQAVI [I11A] | 0.413 |
| QDAERRLLRQIVI [Y3A] | 0.131 |
| QDYEARALRQIVI [R5A L7A] | 0.107 |
| QDYEARLLRQIVI [R5A] | 0.356 |

Sample 3
Target: Interferon regulatory factor 5, full length, phosphomimetic (IRF5, Homo sapiens, UniProt Q13568-2, residues 1-514, K96S/S451D/S453D/S456D/S462D)
Technique: protein-binding microarray
Molecule type: double-stranded DNA, one strand shown
Sample: in vitro
Concentration: 250 nM
Notes: 60-bp whole probe
With: salmon DNA 0.4 mg/ml
Baseline: random background probes
Direction: higher = stronger binding
Constant ends, left off below: GCCTAGCAC … GTCTTGATTCGCTTGACGCTGCTG
| Strand | log fluorescence |
| --- | --- |
| GACGGTCTCCTTATCCAGACGTGCTAG | -0.0712 z-score |
| TCATGTGTCTGATTATTACTGTGCTAG | -0.0131 z-score |
| GAAATTCTCATTTCCAATTAGTGCTAG | 1.67 z-score |
| TTAGGTATCAGTATCGATTAGTGCTAG | 8.13 z-score |
| TATGTTCACTATTTAAGGCCGTGCTAG | 0.421 z-score |
| GACGGTCTCGGCCTGGGGACGTGCTAG | -0.378 z-score |
| TTAGATCTCAGTCTCGATGAGTGCTAG | 0.34 z-score |
| ATGCTACAATAAGTGTTAGTGTGCTAG | -0.0802 z-score |
| TTAGGTATCGGACTGGGCTAGTGCTAG | 1.46 z-score |
| TCAATTTTCTAAATGCCACTGTGCTAG | 1.01 z-score |
| TTAGGTTTCCTTTCCCTTAAGTGCTAG | 2.07 z-score |
| AACCATTTTGTTTTTCATTAGTGCTAG | 1.71 z-score |
| GTAGGTTTCGGGTATCGGTTAGTGCTA | 9.4 z-score |
| TTCGAACTGAGTTTCGATTAGTGCTAG | 9.4 z-score |
| GACGGACTGGACTTTCGGAACGTGCTA | 5.01 z-score |
| ATATATATATTATATATTTATGTGCTA | 0.978 z-score |
| GTCGATTTCAGTATCGAGACGTGCTAG | 5.08 z-score |
| GAAGAACTGAGACTGGAGACGTGCTAG | -0.216 z-score |

Sample 4
Target: RNA binding protein fox-1 homolog 2, RRM domain, GST-SBP tag (RBFOX2, Homo sapiens, UniProt O43251-10, residues 100-194)
Technique: RNA Bind-n-Seq
Molecule type: RNA
Sample: in vitro
Concentration: 365 nM
Notes: natural RNA segment, single round, ends assumed
Baseline: no-protein control
Direction: higher = stronger binding
Target sequence (chain): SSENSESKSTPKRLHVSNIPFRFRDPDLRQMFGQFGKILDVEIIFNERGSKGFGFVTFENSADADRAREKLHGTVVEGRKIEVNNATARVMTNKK
| Strand | RBNS enrichment (R) |
| --- | --- |
| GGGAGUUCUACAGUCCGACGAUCCUUUCAGAUUUCCAUAAAGCCAGCAAUCAGAAAGGAUCUCUCUUCCAUACCACUGUUCUUGCUAAAAGGAAGCUGCAUAUUUGUGUUCUUUCAUCUGUGGCUCUUUGCUAUGGAAUUCUCGGGUGCCAA | 0.513 |
| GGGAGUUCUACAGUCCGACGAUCUUCAUAAUGCAGUUGCCCAAGGCCUGUCUUGCAGUGGUACCUUAAAGUUAACCUCAUAAUCUUGGAACUUGGGCUCCAACCCUUAUGAUUGUGGAGUGUUUACUAGAUACUGGAAUUCUCGGGUGCCAA | 0.497 |
| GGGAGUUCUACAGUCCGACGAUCCUUUUUUUAAAAAAAAAAAGUCCUCAAAUCAGGAAGAAACAUCAAAGACUAUGUCCUAGUGGAGGGAGUAAUCCUAACACCCAGGCUGGCCGCCAGCUGGCACCUGCCUCUGGAAUUCUCGGGUGCCAA | 0.254 |
| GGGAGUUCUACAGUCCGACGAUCUCUACUGAGCUGGGCUACUGUACACAAUGGACAGUGUGCAUUUCUGUACAGGUUACGGUUCUAUGCAUAAACAUUUUAGAAAACAAACAUAGAAACUUAGGCACUUUGCUUGGAAUUCUCGGGUGCCAA | 0.463 |
| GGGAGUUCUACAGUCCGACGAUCCUUGAGUAAAUCCCGUUACCUCUCUGAGCCUCGGUUACCCUGUCUGUAAAAAGGGAGGUGAGAAUACCUACCUCACGGAACUGUUGGGAGGCUCAGAUGAGAUGCUAUAUUGGAAUUCUCGGGUGCCAA | 0.311 |
| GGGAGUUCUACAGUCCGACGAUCGCCAUUUGCACUCCAGCCUGGGCAACAAGAGCGAAAUUCCAUCUCAAAAAAAAAAGGUGGGUAAAGGGCCAUGAGCCCAAACCACUAGGUUGUUCACCUUUUCAUCUGAAUGGAAUUCUCGGGUGCCAA | 0.293 |
| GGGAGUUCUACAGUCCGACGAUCCAUAGAGCGCCCCCUACUUCCCAGUUAACUCCCAGUUCUUCUCCCUGAGCUUGGUAUUUGUCAUGUGCCAACUCUGACUCUGAGGUGGGCAGUGAGGGAAGCAGCCCCGGUGGAAUUCUCGGGUGCCAA | 0.469 |
| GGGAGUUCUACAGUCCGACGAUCUGGGAACACCCACACUCAGUGCACCCUGUGGGUGACCCUCCCUACACAGUGCAGAGCAGAGCCCAGGAGGGGCCACAGGCAUCAGUGAACUCUCCUUGCCUAGGAUGGCAUGGAAUUCUCGGGUGCCAA | 0.309 |
| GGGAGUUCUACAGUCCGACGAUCCGCAUGCCUUUAAUCCCAGCACUCGGGAGGCAGAGGCAGGCGGAUUUUUGAGUUCAAGGGCAGCCUGGUCUACAAAGUGAGUUCCAGGACAGCCAGGGCUACACAGAGGAUGGAAUUCUCGGGUGCCAA | 0.337 |
| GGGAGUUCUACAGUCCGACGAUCCACCCUGAGAGACCUGGGCAGCCAGGCUUUCCCCAGGCUGCCCGCCCUGAGCCAGGUGCCACCACUGUAAGGAAAUGCCUUCAGAAAUUCACUGGUUCCUUCAAAGCGCUUGGAAUUCUCGGGUGCCAA | 0.283 |
| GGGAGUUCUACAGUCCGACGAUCAUCUUUUUAAAUAGAGAGCUAUGUAUUUUUCAUGUAAUCUGUGAUUUCAAGAAGAUGAUUGGAGUAUAAGGAUUAUCAUUUUGUUAGGUAGAGUUUCUUUUUUUCUUUUUUGGAAUUCUCGGGUGCCAA | 0.517 |
| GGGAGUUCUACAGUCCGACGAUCCUGCCCUGCCUGUCAUUGCUGCAAAGAGCUGCUGCUUUGCCAACCUAAGCAAAGAAAAUACGGCUUCUCUUGCAUUAUUUUCCCUUUUGGUUGGUUUGUUUUCUAGAAGUUGGAAUUCUCGGGUGCCAA | 0.615 |

Sample 5
Target: ABI1, truncated, D143A, DHFR fusion (Arabidopsis thaliana)
Technique: DHFR PCA, deep sequencing
Sample: yeast
Notes: methotrexate growth selection, single substitutions
With: (+)-ABA 2500 µM
Baseline: wild-type fitted maximum
Direction: higher = stronger binding
Parent: PYL1, truncated, DHFR fusion (Arabidopsis thaliana); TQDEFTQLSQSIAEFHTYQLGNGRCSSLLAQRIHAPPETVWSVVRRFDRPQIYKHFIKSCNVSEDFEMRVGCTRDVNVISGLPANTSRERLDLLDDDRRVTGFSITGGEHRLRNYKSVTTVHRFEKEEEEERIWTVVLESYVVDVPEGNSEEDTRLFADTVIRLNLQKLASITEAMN
| Variant | relative binding score |
| --- | --- |
| I162D | -5.09% |
| G108Q | 76.1% |
| Q167H | 96.5% |
| L166M | 95.6% |
| L82H | 44.1% |
| P83A | 93.2% |
| T160L | 97.6% |
| M176E | 98.7% |
| R46F | 76% |
| V43I | 96.7% |
| R123I | 93.8% |
| V121I | 94% |
| P37G | 82.7% |
| N177A | 93% |
| V78Q | 54.5% |
| I133K | 95.4% |
| F56S | 44.6% |

Excerpt of the above (sample 3):
| Strand | log fluorescence |
| --- | --- |
| TATGTTCACTATTTAAGGCCGTGCTAG | 0.421 z-score |
| GACGGTCTCGGCCTGGGGACGTGCTAG | -0.378 z-score |
| TTAGATCTCAGTCTCGATGAGTGCTAG | 0.34 z-score |
| ATGCTACAATAAGTGTTAGTGTGCTAG | -0.0802 z-score |
| TTAGGTATCGGACTGGGCTAGTGCTAG | 1.46 z-score |
| TCAATTTTCTAAATGCCACTGTGCTAG | 1.01 z-score |
| TTAGGTTTCCTTTCCCTTAAGTGCTAG | 2.07 z-score |
| AACCATTTTGTTTTTCATTAGTGCTAG | 1.71 z-score |
| GTAGGTTTCGGGTATCGGTTAGTGCTA | 9.4 z-score |
| TTCGAACTGAGTTTCGATTAGTGCTAG | 9.4 z-score |
| GACGGACTGGACTTTCGGAACGTGCTA | 5.01 z-score |
| ATATATATATTATATATTTATGTGCTA | 0.978 z-score |
| GTCGATTTCAGTATCGAGACGTGCTAG | 5.08 z-score |
